Measured values from different studies.
Compare with care: the assays were run in different laboratories. Numbers after ± are the reported error.
uncharacterized protein: uncharacterized protein (Bos taurus, UniProt E1BM68)
USP3 ZnF-UBD domain: Ubiquitin carboxyl-terminal hydrolase 3, ZnF-UBD domain (USP3, Homo sapiens, UniProt Q9Y6I4)
Sequence of UniProt Q9Y6I4 (whole entry, looked up): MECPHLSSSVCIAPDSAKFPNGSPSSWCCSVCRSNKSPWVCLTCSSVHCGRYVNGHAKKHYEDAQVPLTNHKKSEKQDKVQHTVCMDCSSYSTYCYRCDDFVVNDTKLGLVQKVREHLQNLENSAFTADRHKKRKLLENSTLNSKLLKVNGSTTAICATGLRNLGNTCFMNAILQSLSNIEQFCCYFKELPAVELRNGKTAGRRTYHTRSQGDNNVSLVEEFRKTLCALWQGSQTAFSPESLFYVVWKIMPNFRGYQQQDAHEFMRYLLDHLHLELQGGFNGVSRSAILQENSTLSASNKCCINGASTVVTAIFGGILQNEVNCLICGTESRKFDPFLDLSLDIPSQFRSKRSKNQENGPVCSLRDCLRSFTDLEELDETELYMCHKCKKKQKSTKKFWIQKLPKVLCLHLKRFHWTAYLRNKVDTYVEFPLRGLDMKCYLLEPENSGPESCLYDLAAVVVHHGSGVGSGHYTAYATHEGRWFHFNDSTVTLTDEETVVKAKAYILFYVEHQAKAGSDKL
Sequence of UniProt P02769 (whole entry, looked up): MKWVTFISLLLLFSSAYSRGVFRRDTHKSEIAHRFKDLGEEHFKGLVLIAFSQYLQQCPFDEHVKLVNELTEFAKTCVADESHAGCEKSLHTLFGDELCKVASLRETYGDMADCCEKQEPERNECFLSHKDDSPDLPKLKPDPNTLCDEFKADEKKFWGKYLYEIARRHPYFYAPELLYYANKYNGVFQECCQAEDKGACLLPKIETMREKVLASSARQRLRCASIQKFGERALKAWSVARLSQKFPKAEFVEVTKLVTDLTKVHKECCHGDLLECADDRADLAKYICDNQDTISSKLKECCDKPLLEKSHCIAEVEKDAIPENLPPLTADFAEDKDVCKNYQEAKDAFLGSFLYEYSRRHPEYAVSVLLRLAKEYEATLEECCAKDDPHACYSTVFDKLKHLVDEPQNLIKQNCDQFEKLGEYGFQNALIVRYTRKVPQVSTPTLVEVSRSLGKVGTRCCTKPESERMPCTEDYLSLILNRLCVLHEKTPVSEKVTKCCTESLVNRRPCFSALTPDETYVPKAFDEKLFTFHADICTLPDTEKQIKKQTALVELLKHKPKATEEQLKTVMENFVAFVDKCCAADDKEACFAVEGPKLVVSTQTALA
Sequence of UniProt Q9LJE2 (whole entry, looked up): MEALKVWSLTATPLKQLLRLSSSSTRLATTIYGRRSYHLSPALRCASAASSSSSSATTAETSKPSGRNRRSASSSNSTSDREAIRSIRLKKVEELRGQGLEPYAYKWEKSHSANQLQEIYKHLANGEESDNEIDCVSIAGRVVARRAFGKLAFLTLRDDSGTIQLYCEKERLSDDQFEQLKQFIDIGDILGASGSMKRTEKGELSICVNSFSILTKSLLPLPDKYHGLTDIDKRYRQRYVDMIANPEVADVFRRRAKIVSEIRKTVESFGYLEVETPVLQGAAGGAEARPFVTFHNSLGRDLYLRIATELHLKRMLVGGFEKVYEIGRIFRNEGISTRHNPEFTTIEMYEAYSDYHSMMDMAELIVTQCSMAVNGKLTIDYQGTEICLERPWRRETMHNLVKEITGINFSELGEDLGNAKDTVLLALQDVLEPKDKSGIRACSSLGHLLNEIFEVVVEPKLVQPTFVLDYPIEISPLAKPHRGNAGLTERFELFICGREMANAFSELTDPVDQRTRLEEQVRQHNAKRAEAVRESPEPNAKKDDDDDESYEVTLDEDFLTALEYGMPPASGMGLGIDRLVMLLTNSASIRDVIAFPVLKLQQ
Sequence of UniProt P46098 (whole entry, looked up): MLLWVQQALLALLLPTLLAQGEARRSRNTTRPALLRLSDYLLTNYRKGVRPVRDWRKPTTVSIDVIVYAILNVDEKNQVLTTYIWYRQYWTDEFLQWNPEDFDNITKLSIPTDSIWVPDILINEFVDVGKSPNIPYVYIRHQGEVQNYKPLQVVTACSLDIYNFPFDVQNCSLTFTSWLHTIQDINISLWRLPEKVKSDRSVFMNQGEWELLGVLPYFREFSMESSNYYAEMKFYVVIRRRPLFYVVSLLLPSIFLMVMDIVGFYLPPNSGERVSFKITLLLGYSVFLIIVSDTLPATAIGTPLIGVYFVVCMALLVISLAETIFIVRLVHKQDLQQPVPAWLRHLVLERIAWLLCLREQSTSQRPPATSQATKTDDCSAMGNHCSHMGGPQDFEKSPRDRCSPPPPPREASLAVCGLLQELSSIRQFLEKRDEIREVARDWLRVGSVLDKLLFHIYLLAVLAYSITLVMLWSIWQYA
Sequence of UniProt P51532 (whole entry, looked up): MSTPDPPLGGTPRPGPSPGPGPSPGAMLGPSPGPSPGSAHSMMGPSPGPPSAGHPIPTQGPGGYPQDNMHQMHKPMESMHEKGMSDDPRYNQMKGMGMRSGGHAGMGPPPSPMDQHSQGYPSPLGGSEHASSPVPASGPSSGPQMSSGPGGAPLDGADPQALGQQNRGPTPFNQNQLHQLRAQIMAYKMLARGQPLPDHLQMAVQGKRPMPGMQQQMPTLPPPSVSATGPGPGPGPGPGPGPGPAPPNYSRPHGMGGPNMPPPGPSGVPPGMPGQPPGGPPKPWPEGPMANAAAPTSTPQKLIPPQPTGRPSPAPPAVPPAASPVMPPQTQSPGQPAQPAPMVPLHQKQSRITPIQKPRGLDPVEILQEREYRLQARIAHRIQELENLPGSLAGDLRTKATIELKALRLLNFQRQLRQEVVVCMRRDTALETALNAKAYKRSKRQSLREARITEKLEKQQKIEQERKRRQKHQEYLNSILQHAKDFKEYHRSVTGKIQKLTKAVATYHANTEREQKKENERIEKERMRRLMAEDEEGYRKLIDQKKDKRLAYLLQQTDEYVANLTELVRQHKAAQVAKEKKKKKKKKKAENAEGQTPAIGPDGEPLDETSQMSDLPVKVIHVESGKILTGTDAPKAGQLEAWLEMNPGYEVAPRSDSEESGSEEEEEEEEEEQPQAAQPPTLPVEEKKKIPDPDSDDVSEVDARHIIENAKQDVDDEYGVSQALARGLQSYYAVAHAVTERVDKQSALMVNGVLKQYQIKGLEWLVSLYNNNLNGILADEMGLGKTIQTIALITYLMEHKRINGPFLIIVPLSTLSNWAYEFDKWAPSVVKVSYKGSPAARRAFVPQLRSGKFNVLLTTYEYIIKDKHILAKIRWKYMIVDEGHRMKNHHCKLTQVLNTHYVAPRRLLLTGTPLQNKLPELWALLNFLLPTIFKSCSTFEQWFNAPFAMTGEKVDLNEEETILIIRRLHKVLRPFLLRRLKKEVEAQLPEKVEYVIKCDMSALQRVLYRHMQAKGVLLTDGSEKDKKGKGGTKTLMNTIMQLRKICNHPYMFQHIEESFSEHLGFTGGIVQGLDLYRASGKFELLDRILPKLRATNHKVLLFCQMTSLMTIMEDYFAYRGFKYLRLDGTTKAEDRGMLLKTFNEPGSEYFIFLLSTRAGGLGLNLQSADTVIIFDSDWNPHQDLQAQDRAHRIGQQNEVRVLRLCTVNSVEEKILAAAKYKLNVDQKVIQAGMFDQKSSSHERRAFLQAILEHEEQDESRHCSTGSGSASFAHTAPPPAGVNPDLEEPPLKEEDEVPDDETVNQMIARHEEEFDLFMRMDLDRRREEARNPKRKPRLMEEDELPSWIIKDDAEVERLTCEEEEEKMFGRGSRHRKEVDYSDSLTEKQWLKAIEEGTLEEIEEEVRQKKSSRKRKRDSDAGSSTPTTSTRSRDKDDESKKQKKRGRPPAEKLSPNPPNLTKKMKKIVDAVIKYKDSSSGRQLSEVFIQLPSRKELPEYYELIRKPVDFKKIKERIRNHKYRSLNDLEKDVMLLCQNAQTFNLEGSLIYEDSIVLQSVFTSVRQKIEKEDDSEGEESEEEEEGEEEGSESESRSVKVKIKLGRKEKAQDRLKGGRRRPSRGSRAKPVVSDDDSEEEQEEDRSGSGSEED
Sequence of UniProt P42338 (whole entry, looked up): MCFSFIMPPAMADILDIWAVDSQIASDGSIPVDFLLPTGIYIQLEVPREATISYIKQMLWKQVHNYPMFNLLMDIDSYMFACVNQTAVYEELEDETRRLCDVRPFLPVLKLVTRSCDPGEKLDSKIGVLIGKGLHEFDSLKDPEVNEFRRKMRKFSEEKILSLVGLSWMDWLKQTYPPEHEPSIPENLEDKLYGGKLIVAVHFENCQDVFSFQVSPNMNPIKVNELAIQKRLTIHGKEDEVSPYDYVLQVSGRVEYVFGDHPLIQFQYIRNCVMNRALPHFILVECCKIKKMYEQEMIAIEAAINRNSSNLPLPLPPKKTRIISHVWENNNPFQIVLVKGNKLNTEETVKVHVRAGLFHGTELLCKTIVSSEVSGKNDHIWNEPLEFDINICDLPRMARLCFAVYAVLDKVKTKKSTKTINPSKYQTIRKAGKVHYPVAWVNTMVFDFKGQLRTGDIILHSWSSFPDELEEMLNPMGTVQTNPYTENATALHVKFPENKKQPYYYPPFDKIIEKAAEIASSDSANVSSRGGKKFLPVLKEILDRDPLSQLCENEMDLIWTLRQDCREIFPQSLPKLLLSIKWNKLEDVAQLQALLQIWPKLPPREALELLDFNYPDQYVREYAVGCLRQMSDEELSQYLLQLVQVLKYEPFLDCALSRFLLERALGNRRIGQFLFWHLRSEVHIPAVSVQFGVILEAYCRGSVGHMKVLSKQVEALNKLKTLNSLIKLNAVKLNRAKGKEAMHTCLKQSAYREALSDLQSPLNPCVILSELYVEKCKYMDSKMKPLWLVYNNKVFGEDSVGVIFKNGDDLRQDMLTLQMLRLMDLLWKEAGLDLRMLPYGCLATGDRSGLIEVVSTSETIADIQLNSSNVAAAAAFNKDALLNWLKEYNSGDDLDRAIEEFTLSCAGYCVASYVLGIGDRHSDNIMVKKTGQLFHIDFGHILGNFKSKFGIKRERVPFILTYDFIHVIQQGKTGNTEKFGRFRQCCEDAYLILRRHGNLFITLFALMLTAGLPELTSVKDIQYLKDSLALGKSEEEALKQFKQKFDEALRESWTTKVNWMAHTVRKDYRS

SMILES = CCOC(=O)C(C)(C)Oc1ccc(Cl)cc1; tested on = Peroxisome proliferator-activated receptor alpha (Ppara, Mus musculus, UniProt P23204, F272I); measurement = Ki; result = 0.051 ± 0.003 µM
SMILES = Cc1cnc(C)c(C)n1; tested on = uncharacterized protein; assay = cAMP level, agonist, cAMP luminescence; test system = HEK293 cells; measurement = EC50; result = 174 ± 22.4 µM
SMILES = Cc1ncsc1-c1ccc([C@H](C)NC(=O)[C@@H]2C[C@@H](O)CN2C(=O)[C@@H](NC(=O)CN2CCN(c3cc(-c4ccccc4O)nnc3N)CC2)C(C)(C)C)cc1; tested on = SWI/SNF-related matrix-associated actin-dependent regulator of chromatin subfamily A member 4 (SMARCA4, Homo sapiens, UniProt P51532); assay = degrader, immunofluorescence; test system = SW1573; measurement = DC50; result = 0.0105 µM
SMILES = CCCCCCCCCCCCCCCCCCc1ccc(O)cc1; tested on = Albumin (ALB, Bos taurus, UniProt P02769); assay = modified Stern–Volmer; test system = PBS; conditions = 37 °C; measurement = Kb; result = 19500 µM
SMILES = CCc1nccnc1CC; tested on = Olfactory receptor (Mus musculus, UniProt Q8VGQ8); assay = cAMP, agonist; test system = HEK293 transfected with Olfactory receptor; measurement = EC50; result = 776 ± 19.1 µM
SMILES = O=C(O)CCC(=O)Nc1cccc2ccccc12; tested on = USP3 ZnF-UBD domain; measurement = Kd; result = > 1000 µM
SMILES = N#C[C@@]12C[C@@H]1[C@@H](n1cnc3c(NC4CCCC4)nc(I)nc31)[C@H](O)[C@@H]2O; tested on = 5-hydroxytryptamine receptor 2B (Mus musculus, UniProt Q02152); assay = antagonist, Gq dissociation BRET; conditions = mouse receptor; measurement = Kb; result = 0.338 µM
SMILES = Cc1ccc(C(=O)O)cc1S(=O)(=O)Nc1cccc(C(=O)CCC(=O)O)c1; tested on = USP3 ZnF-UBD domain; measurement = Kd; result = 283 µM
SMILES = CCC(C)c1nccnc1OC (centres unmarked); tested on = uncharacterized protein; assay = cAMP level, agonist, cAMP luminescence; test system = HEK293 cells; measurement = EC50; result = 172 ± 42.8 µM
SMILES = Cn1cc(-c2ccc(-c3cncc(Cl)c3N3CCC4(CCNC4=O)CC3)cc2)cn1; tested on = COLO 205; assay = gene expression, microarray, measured: C1orf61 mRNA; conditions = concentration not given, 2 h; how to read = relative to: untreated cells; measurement = log2 fold change; result = -3
SMILES = O=C(O)CCn1ccccc1=O; tested on = USP3 ZnF-UBD domain; measurement = Kd; result = > 1000 µM
SMILES = O=C(NCC1CCOCC1)c1ccc(C2CCCCC2)cc1; assay = hepatocyte stability; test system = cryopreserved rat hepatocytes; conditions = 1 µM; measurement = hepatic clearance; result = 46 mL/min/kg
SMILES = O=C(O)CCOc1ccccc1; tested on = USP3 ZnF-UBD domain; measurement = Kd; result = > 1000 µM
SMILES = COc1nccnc1C(C)C; tested on = uncharacterized protein; assay = cAMP level, agonist, cAMP luminescence; test system = HEK293 cells; measurement = EC50; result = 171 ± 19.4 µM
SMILES = Cc1nn(-c2nc3ccccc3[nH]2)c(O)c1C(c1ccccn1)c1c(C)nn(-c2nc3ccccc3[nH]2)c1O; tested on = Cyclic GMP-AMP synthase, catalytic domain; with DNA (CGAS, Homo sapiens, UniProt Q8N884); assay = cGAS-DNA phase separation, inhibitor; measurement = EC50; result = 7.38 µM
SMILES = Cc1ncsc1-c1ccc([C@H](C)NC(=O)[C@@H]2C[C@@H](O)CN2C(=O)[C@@H](NC(=O)CCCCCC(=O)N2CCC3(CC2)CCN(c2cncc(Nc4ncc(Cl)c(-c5cccc(-c6ccccc6)c5)n4)c2)C3=O)C(C)(C)C)cc1; tested on = Phosphatidylinositol 5-phosphate 4-kinase type-2 gamma (PIP4K2C, Homo sapiens, UniProt Q8TBX8); assay = degrader, immunoblot; test system = HAP1; conditions = 6 h; measurement = DC50; result = 0.361 µM
SMILES = O=C(O)CCc1ccno1; tested on = USP3 ZnF-UBD domain; measurement = Kd; result = > 1000 µM
SMILES = CC[C@@H]1[C@H](F)C(=O)N[C@@H]1COc1nccc2cc(C(N)=O)c(OC)cc12; tested on = Phosphatidylinositol 4,5-bisphosphate 3-kinase catalytic subunit beta isoform (PIK3CB, Homo sapiens, UniProt P42338); assay = ATP probe binding, KiNativ profiling, measured: ATP probe site; test system = THP-1 cell lysate; measurement = IC50; result = > 5 µM
SMILES = O=C(O)CCC(=O)Nc1ccccc1; tested on = USP3 ZnF-UBD domain; measurement = Kd; result = > 1000 µM
SMILES = Nc1nsc(C(=O)NCc2c(F)cccc2Cl)c1Cl; tested on = Lysine--tRNA ligase, chloroplastic/mitochondrial (OVA5, Arabidopsis thaliana, UniProt Q9LJE2); assay = enzyme activity, inhibitor; measurement = IC50; result = > 100 µM
SMILES = O=C(Nc1ccc(C2CCCCC2)cc1)c1cn[nH]c1; test system = cryopreserved rat hepatocytes; conditions = 1 µM; measurement = hepatic clearance; result = 46 mL/min/kg
SMILES = Cc1ncsc1-c1ccc(CNC(=O)[C@@H]2C[C@@H](O)CN2C(=O)[C@@H](NC(=O)CCCCCCCCCCCC(=O)NCCCCC#Cc2cccc(-c3nn(-c4nc(C(=O)O)cs4)c(CC4CC4)c3Cc3ccc(S(N)(=O)=O)cc3)c2)C(C)(C)C)cc1; tested on = L-lactate dehydrogenase B chain (LDHB, Homo sapiens, UniProt P07195); assay = degrader, western blot; test system = PANC-1; conditions = 48 h; measurement = DC50; result = 0.074 ± 0.0069 µM
SMILES = NC(=O)[C@H]1CCCN1C(=O)CCC(=O)O; tested on = USP3 ZnF-UBD domain; measurement = Kd; result = 165 µM
SMILES = CC(=O)c1nccnc1C; tested on = uncharacterized protein; assay = cAMP level, agonist, cAMP luminescence; test system = HEK293 cells; measurement = EC50; result = 1270 ± 313 µM
SMILES = CCn1c(-c2nc3ccc(C(=O)N4CCCC(N)C4)cc3n2C)cc2ccccc21 (centres unmarked); tested on = 5-hydroxytryptamine receptor 3A (HTR3A, Homo sapiens, UniProt P46098); assay = intracellular calcium, antagonist, fluorescence; measurement = IC50; result = 2.51 µM
SMILES = CC(C)C[C@H](NC(=O)C[C@H](O)[C@H](CC(C)C)NC(=O)[C@H](Cc1c[nH]cn1)NC(=O)CNC(=O)[C@@H](NC(=O)[C@H](C)NC(=O)[C@H](Cc1c[nH]c2ccccc12)NC(=O)[C@H](CCC(N)=O)NC(=O)[C@@H](Cc1ccccc1)NC(=O)COCCOCCNC(=O)CCC(C(=O)O)N1CCN(CC(=O)O)CCN(CC(=O)O)CCN(CC(=O)O)CC1)C(C)C)C(N)=O (some centres unmarked) [lutetium-177 labelled]; test system = BALB/c nu/nu mice, female, kidneys; conditions = 100 pmol, 30 min, time course 0.5 h, added: PA 300 µg; measurement = tissue uptake; result = 10.2 ± 1.7 %ID/g

For quick reference, copied from above:
SMILES = Cc1nn(-c2nc3ccccc3[nH]2)c(O)c1C(c1ccccn1)c1c(C)nn(-c2nc3ccccc3[nH]2)c1O; tested on = Cyclic GMP-AMP synthase, catalytic domain; with DNA (CGAS, Homo sapiens, UniProt Q8N884); assay = cGAS-DNA phase separation, inhibitor; measurement = EC50; result = 7.38 µM
SMILES = O=C(O)CCn1ccccc1=O; tested on = USP3 ZnF-UBD domain; measurement = Kd; result = > 1000 µM
